Experimental data of several laboratories.
Compare with care: the assays were run in different laboratories. ± marks the error that the study gave.

SMILES | cell line | assay | setting | measurement | result
CC(=O)O[C@H]1C(=O)[C@@]2(C)[C@H]([C@H](OC(=O)c3ccccc3)[C@]3(O)C[C@H](OC(=O)[C@H](O)[C@@H](NC(=O)c4ccccc4)c4ccccc4)C(C)=C1C3(C)C)[C@]1(OC(C)=O)CO[C@@H]1C[C@@H]2O | HeLa expressing wild-type P-gp | CellTiter-Glo | 48 h | IC50 | 0.081 ± 0.008 µM
C[C@H](Nc1ccc2c(c1)OCCn1cc(N3C(=O)OC[C@H]3C(F)F)nc1-2)C(N)=O | KPL4 | CellTiter-Glo | 120 h | IC50 | 0.0606 µM
O=C1C(=O)N(CCn2ncc3c(=O)[nH]cnc32)c2ccc(F)cc21 | A498 | cell growth, SRB | 72 h | IC50 | 12.8 ± 1.23 µg/mL
COc1cc([C@@H]2c3cc4c(cc3[C@@H](O[C@@H]3O[C@@H]5CO[C@@H](C)O[C@H]5[C@H](O)[C@H]3O)[C@H]3COC(=O)[C@H]23)OCO4)cc(OC)c1O | HeLa expressing wild-type P-gp | cell viability | 48 h | IC50 | 4.5 ± 0.35 µM
CCCCCN1C[C@H](O)[C@@H](O)[C@H](O)[C@@H]1CO | GM2 AB-variant fibroblasts | glycosphingolipid level, LC-MS/MS, item: HexCer | – | IC50 | 0.46 µM
CCCCN1C[C@H](O)[C@@H](O)[C@@H](O)[C@H]1CO | sample H patient fibroblasts | acidic compartment staining, LysoTracker Red imaging | 216 h | IC50 | 13.6 µM
O=C(O)COCC(=O)O | hepatocytes, iPSC-derived, line W1 | cell viability, RealTime-Glo MT | 24 h, differentiation day 23 | IC50 | 10200 µM
CCOC(=O)CCNc1cc(N2CCc3ccccc3CC2)nc(-c2ccccn2)n1 | OCI-Ly1 | – | 0.5 µM, 120 h | viability | 117%
C=CC(=O)N1CCC(COCC(=O)N2CCN(c3nc(-c4cnc(N)nc4C(F)F)nc(N4CCOC[C@@H]4C)n3)CC2)CC1 | HCC1954 | western blot, item: phospho-PKB/Akt Ser473 | 2 h | IC50 | 0.0332 µM
C=C1CC[C@@H]2[C@](C)(CCC[C@]2(C)C(=O)O)[C@H]1CC/C(C)=C/CO | neuroblastoma M2, no MYCN induction | cell viability, SRB | without doxycycline | IC50 | 1.99 µg/mL
COc1cc(N2CCC(N3CCN(C)CC3)CC2)ccc1Nc1ncc(Cl)c(Nc2ccccc2S(=O)(=O)C(C)C)n1 | SUP-M2 (NPM-ALK) | cell growth | 3 days | IC50 | 0.02 ± 0.004 µM
Cc1cc(Nc2ncnc3ccc(NC4=NC(C)(C)CO4)cc23)ccc1Oc1ccn2ncnc2c1 | Ba/F3 expressing HER2 L755A | cell growth, inhibitor, CellTiter-Glo | – | IC50 | 0.195 µM
NC(=O)c1cccc2cn(-c3ccc([C@@H]4CCCNC4)cc3)nc12 | A549 wild type | PARylation, inhibitor | – | IC50 | 0.0167 µM
Cc1ncsc1-c1ccc(CNC(=O)[C@@H]2C[C@@H](O)CN2C(=O)[C@@H](NC(=O)C2(F)CC2)C(C)(C)C)c(OCCOc2ccc(CN3CCN(c4cc(-c5ccccc5O)nnc4N)CC3)cc2)c1 | NCI-H522 SMARCA4/SMARCA2-deficient | cell viability, CellTiter-Glo | 7 days | IC50 | > 1 µM
O=c1ncccn1[C@@H]1O[C@H](CO)[C@@H](O)[C@H]1O | OCI-Ly1 | – | 0.5 µM, 120 h | viability | 146%
Cc1ncsc1-c1ccc([C@H](C)NC(=O)[C@@H]2C[C@@H](O)CN2C(=O)[C@@H](NC(=O)CN2CCN(c3cc(-c4ccccc4O)nnc3N)CC2)C(C)(C)C)cc1 | normal prostate epithelial cells | cell viability, CellTiter-Glo | 7 days | IC50 | 0.0877 µM
Cc1ccc(C(=O)N(CCCN)[C@@H](c2nc3cc(Cl)ccc3c(=O)n2Cc2ccccc2)C(C)C)cc1 | human CD34+ haematopoietic cells | cell viability, CellTiter-Glo | 3 days | IC50 | 0.0045 ± 0.001 µM

SMILES | cell line | assay | setting | measurement | result
Cc1c(C)c2c(c(C)c1O)CCC(C)(COc1ccc(CC3SC(=O)NC3=O)cc1)O2 (stereo not shown) | hepatocytes, iPSC-derived, line W1 | cell viability, RealTime-Glo MT | 48 h, differentiation day 23 | IC50 | 24 µM
Cc1nc(-c2cn3c(n2)-c2ccc(-c4cnn(C(C)(C)C(N)=O)c4)cc2OCC3)n(C(C)C)n1 | SW48 PIK3CA H1047R | – | 96 h | IC50 | 0.00761 µM
COC[C@H](NC(=O)c1ccn(S(C)(=O)=O)c1)C(=O)Nc1nc(-c2cccc(N3C[C@@H](C)O[C@@H](C)C3)n2)cs1 | NCI-H522 SMARCA4/SMARCA2-deficient | cell viability, CellTiter-Glo | 168 h | IC50 | > 1 µM
CCC(=O)N1CCC(COCC(=O)N2CCN(c3nc(-c4cnc(N)nc4C(F)F)nc(N4CCOC[C@@H]4C)n3)CC2)CC1 | HCC1954 | western blot, item: phospho-S6 Ser235/Ser236 | 2 h | IC50 | 0.117 µM
C[C@@H]1CN(C(=O)c2ccc(NC(=O)c3cc(O[C@H](C)c4c(Cl)ccc(F)c4Cl)c(N)nn3)cc2)C[C@H](C)N1 | ALK-fusion cell lines | cell viability | – | IC50 | 0.014 µM
COc1ccc(F)cc1C(=O)NCc1ccc(-c2nn([C@@H](C)C(F)(F)F)c(N)c2C(N)=O)cc1 | Rec1 | item: IFNα2 | 24 h | IC50 | > 0.1 µM
N[C@@H](CC(=O)N1CCN(C(c2ccc(F)cc2)c2ccc(F)cc2)CC1)C(=O)N1Cc2ccccc2C1 | MV4-11 | cell viability, CellTiter-Glo | day 2 | IC50 | 1.6 µM
CC(C)(C)Cn1c(N)nc2ccc(-c3[nH]c(C(C)(C)C)nc3-c3ccc(F)cc3)nc21 | Ba/F3 expressing EGFR L858R/T790M | cell viability | without IL-3 | IC50 | 5.2 µM
Cc1c(C(=O)O)ccc2c3n(nc12)[C@@H]1[C@H](C3)N(CC2CC2)[C@@]2(C(=O)Nc3cc(Cl)ccc32)[C@H]1c1cccc(Cl)c1F | human megakaryocyte progenitors | megakaryocyte colony formation | 10 to 12 days | IC50 | 0.025 µM
CC(=O)c1c(O)c(C)c(O)c2c1OC1=CC(=O)C(C(C)=O)C(=O)C12C (single isomer, unassigned; (+)) | hepatocytes, iPSC-derived, line W1 | cell viability | 72 h | IC50 | 15 µM
C[C@]1(c2nc3c(C(N)=O)cccc3[nH]2)CCCN1 | A549 wild type | PARylation, inhibitor | – | IC50 | 0.0328 µM
CC[C@@H](C)[C@H](N)C(=O)N1Cc2ccccc2C1 | MV4-11 | cell viability, CellTiter-Glo | day 5 | IC50 | 1.4 µM
CC1(C)COc2ccc(F)cc2CN2c3nc4c(cnn4cc3OC[C@H]2C(F)F)C(=O)N1 | ALK-fusion cell lines | cell viability | – | IC50 | 0.019 µM
CCCCN1C[C@H](O)[C@@H](O)[C@H](O)[C@H]1CO | GM2 AB-variant fibroblasts | lysosomal accumulation, LysoTracker staining | 8 days | IC50 | 28 µM
C[C@H](Nc1ccc2c(c1)OCCn1cc(N3C(=O)OC[C@H]3C(F)F)nc1-2)C(N)=O | HCC1954 | western blot, item: phospho-PKB/Akt Ser473 | 2 h | IC50 | 0.0206 µM
CO[C@H]1[C@H](O[C@H]([C@H]2O[C@@H](n3ccc(=O)[nH]c3=O)[C@H](O)[C@@H]2O)[C@H](NCCCNC(=O)[C@@H](NC(=O)[C@@H](NC(=O)N[C@H](C(=O)O)C(C)C)[C@@H]2CCN=C(N)N2)[C@@H](OC(=O)CCCCCCCCCCCCN(O)C(=N)N)C(C)C)C(=O)O)O[C@H](CN)[C@H]1O | MCF-10A and Vero | cell viability, WST-1 | range over panel | IC50 | > 35 µM
CS(=O)(=O)CCNCc1ccc(-c2ccc3ncnc(Nc4ccc(OCc5cccc(F)c5)c(Cl)c4)c3c2)o1 | Ba/F3 expressing HER2 L755A | cell growth, inhibitor, CellTiter-Glo | – | IC50 | 0.308 µM

A few entries again:
SMILES | cell line | assay | setting | measurement | result
Cc1ccc(C(=O)N(CCCN)[C@@H](c2nc3cc(Cl)ccc3c(=O)n2Cc2ccccc2)C(C)C)cc1 | human CD34+ haematopoietic cells | cell viability, CellTiter-Glo | 3 days | IC50 | 0.0045 ± 0.001 µM
Cc1c(C)c2c(c(C)c1O)CCC(C)(COc1ccc(CC3SC(=O)NC3=O)cc1)O2 (stereo not shown) | hepatocytes, iPSC-derived, line W1 | cell viability, RealTime-Glo MT | 48 h, differentiation day 23 | IC50 | 24 µM
